{"data": "Measured values collected from several papers", "note": "Every numbered part comes from another study and shows a few of its results, in no order. Changes are numbered by the printed parent chain."}
{"data": "Sample 1", "target": "CCNE2, cyclin fold, Cln2 fusion (human)", "method": "yeast growth competition, sequencing", "sample": "yeast", "notes": "weak parent motif", "baseline": "not given", "reading": "higher = stronger binding", "starting sequence": "WEE2 docking peptide (human); KELRQKLNFSYCE; partner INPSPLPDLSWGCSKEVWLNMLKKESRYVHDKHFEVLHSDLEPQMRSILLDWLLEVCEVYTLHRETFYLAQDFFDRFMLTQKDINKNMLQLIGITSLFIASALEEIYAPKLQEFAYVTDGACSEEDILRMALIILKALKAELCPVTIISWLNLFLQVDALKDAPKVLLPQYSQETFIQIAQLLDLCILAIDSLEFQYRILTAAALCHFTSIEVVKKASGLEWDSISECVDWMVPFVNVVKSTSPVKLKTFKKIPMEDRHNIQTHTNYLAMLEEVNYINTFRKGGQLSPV"}
{"Variant": "N8A", "normalised enrichment score": 0.494}
{"Variant": "K6A", "normalised enrichment score": 0.238}
{"Variant": "Y11A", "normalised enrichment score": -0.262}
{"Variant": "Q5A", "normalised enrichment score": 0.302}
{"Variant": "S10A", "normalised enrichment score": 0.0699}
{"Variant": "F9A", "normalised enrichment score": 0.427}
{"Variant": "E2A", "normalised enrichment score": 0.331}
{"data": "Sample 2", "target": "ABI1, truncated, D143A, DHFR fusion (Arabidopsis thaliana)", "method": "DHFR PCA, deep sequencing", "sample": "yeast", "notes": "methotrexate growth selection, single substitutions", "together with": "(+)-ABA 4.8 µM", "baseline": "wild-type fitted maximum", "reading": "higher = stronger binding", "starting sequence": "PYL1, truncated, DHFR fusion (Arabidopsis thaliana); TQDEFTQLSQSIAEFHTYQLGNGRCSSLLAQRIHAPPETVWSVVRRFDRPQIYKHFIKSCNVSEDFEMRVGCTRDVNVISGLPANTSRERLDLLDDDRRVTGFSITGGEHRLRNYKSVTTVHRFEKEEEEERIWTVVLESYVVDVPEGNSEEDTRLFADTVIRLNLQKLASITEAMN; partner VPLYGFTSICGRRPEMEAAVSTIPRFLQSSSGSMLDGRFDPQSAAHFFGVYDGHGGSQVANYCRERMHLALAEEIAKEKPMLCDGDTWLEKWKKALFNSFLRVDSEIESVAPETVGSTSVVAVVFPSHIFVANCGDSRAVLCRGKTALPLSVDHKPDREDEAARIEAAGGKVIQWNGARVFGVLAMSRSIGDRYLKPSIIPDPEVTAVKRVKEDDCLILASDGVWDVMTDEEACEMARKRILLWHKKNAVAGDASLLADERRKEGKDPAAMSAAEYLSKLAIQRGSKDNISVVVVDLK"}
{"Variant": "A175E", "relative binding score [%]": 73.5}
{"Variant": "V143W", "relative binding score [%]": -7.35}
{"Variant": "R74T", "relative binding score [%]": -6.29}
{"Variant": "R24L", "relative binding score [%]": 45.5}
{"Variant": "N22W", "relative binding score [%]": 55.5}
{"Variant": "P83W", "relative binding score [%]": -0.0117}
{"Variant": "L93G", "relative binding score [%]": -2.09}
{"Variant": "R49S", "relative binding score [%]": 63.8}
{"data": "Sample 3", "target": "Hepatocyte nuclear factor 3-beta, forkhead domain (FOXA2, Homo sapiens, UniProt Q9Y261, residues 142-269)", "method": "protein-binding microarray", "molecule type": "double-stranded DNA, one strand shown", "sample": "in vitro", "concentration": "not given", "notes": "k-mer, scored over probes, only values ≥0.25", "reading": "higher = stronger binding", "Construct (chain)": "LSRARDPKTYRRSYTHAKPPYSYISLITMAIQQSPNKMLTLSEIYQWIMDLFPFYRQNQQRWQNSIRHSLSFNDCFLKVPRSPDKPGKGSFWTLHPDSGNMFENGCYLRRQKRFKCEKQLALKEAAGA"}
{"Oligonucleotide": "AATATACT", "E-score": 0.253}
{"Oligonucleotide": "ATTAGACG", "E-score": 0.255}
{"Oligonucleotide": "CATTATCA", "E-score": 0.291}
{"Oligonucleotide": "ACAACTCA", "E-score": 0.256}
{"Oligonucleotide": "CACAAACA", "E-score": 0.294}
{"Oligonucleotide": "TGACACAA", "E-score": 0.309}
{"Oligonucleotide": "ATGTACAC", "E-score": 0.342}
{"Oligonucleotide": "CAGATAAC", "E-score": 0.27}
{"data": "Mixed results"}
{"Compound": "CCOC(=O)c1[nH]c(C)c(C(=O)CN2C(=O)NC(C)(C)C2=O)c1C", "species": "human", "sample": "microsomes or S9", "concentration": "2 µM", "time": "0.5 h", "quantity": "remaining compound", "result": "34.5%"}
{"note": "Some of these lines once more (sample 2):"}
{"Variant": "P83W", "relative binding score [%]": -0.0117}
